Assay results of several laboratories.
Parts stem from different laboratories: compare values within a part only.

Study 1 — technique: universal PBM; form: double-stranded DNA, one strand shown; medium: in vitro; concentration: not given; direction: higher = stronger binding
Target: Sal-like protein 4, full length isoform B (SALL4, Homo sapiens, UniProt Q9UJQ4-2, residues 1-616)
Notes: 8-mer, flanks averaged, mean of replicates
Construct (chain): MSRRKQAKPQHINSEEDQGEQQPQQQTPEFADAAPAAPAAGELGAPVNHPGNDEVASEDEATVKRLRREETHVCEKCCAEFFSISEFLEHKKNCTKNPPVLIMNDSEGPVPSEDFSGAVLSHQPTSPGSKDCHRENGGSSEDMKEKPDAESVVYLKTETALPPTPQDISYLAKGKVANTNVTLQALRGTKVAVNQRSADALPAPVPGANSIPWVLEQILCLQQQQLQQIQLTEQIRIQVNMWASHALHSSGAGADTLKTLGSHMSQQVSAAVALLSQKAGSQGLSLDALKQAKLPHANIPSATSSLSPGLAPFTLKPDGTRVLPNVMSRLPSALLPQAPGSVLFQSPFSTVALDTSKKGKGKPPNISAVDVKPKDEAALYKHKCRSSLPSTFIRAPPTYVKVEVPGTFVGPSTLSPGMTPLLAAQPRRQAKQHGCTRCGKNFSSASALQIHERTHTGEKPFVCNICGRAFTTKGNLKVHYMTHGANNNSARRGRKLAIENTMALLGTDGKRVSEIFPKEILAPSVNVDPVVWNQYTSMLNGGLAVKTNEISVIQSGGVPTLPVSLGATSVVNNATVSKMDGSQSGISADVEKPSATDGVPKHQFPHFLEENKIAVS
Oligonucleotide	E-score
CAGCGGAG	-0.311
CTAGCCCA	-0.117
AATAGGCT	0.0584
AGGAGCAA	-0.11
CACATGCG	-0.179
ATGCACTG	0.0171
CATCAGAG	-0.0762
GAATGACA	0.136

Study 2 — technique: RNA Bind-n-Seq; form: RNA; medium: in vitro; concentration: 200 nM; notes: whole 134-nt RNA, ends assumed; added: 150 mM KCl; baseline: input library; direction: higher = stronger binding
Target: Fragile X messenger ribonucleoprotein 1, C-terminal low-complexity region (Fmr1, Mus musculus, UniProt P35922)
Constant ends, left off below: GGGAGUUCUACAGUCCGACGAUC … UGGAAUUCUCGGGUGUCAAGG
Oligonucleotide	log2 enrichment
UCAAGUCCUGUGCUACACAUCGUAUGUACCGAAUCGGAAAAAGGUGGAAAAAGGAAAGUAUUAUGUUACGCCGUUCGGAUCUGCACUUCC	-0.494
GCAGGAUGUAAAAACAAAUGGAAAUGCUUCGGAUAGUGGCAGGGGUGGGGGUUGCUAAGGAAAGGGUGGGAUGGGAGUGGGUAAAGAGUU	0.51
UAACUUUAGAGGAGGAUCUGAUGGAUAUGGCAGUGGACGUGGAUUUGGGGAUGGCUAUAAUGGGUAUGGAGGAGGACCUGGAGGUGGAAA	0.0786
CUGUGCUACACAUCGUAUGUACCGAAUCGGGGAAAAAAGGGGAAAAAAGGGAAAAAAGGGGAAAGUAUUAUGUUACGCCGUUCGGAUCUG	-0.439
CCUGUGCUACACAUCGUAUGUACCGAAUCGGGUUUUUUGGGGUUUUUUGGGGUUUUUUGGGAAAGUAUUAUGUUACGCCGUUCGGAUCUG	-0.374
CUCAAGUCCUGUGCUACACAUCGUAUGUACCGAAUCGGGGCGGGGCGGGGCGGAAAGUAUUAUGUUACGCCGUUCGGAUCUGCACUUCCA	0.901
GCAGGAAGUAAAAACAAAUGGAAAUGCUUCGGAUAGUGGCAGGGGUGGGGGUUGCUAAGGAAAGGGUGGGAUGGGAGUGGGUAAAAAGUU	-0.118
UUGACGAGGCCGGCCCGGGAGAUGAGACCACCGGCCAGGAAGUCAUUGUCAUUCAGGACACGGGCUUUUCUGUGAAGAUCCUCGCCCCUG	-1.68
UCCUGUGCUACACAUCGUAUGUACCGAAUCGGAAAAAAAGGUUUUUUUGGAAAAAAAGGAAAGUAUUAUGUUACGCCGUUCGGAUCUGCA	-0.823
UGUCCCAGGGAACGCCGGUGCAGAUGUGCUUCUUGUGGGCUCAGAGGCCUUCGUGCUGCUGGACGGGCAGGAGCUGACGCCUCGCUGGAC	-1.5

Study 3 — technique: protein binding microarray; form: double-stranded DNA, one strand shown; medium: in vitro; concentration: not given; baseline: not given; direction: higher = stronger binding
Target: Histone acetyltransferase KAT6A, winged helix 2, GST fusion (KAT6A, Homo sapiens, UniProt Q92794, residues 85-181)
Notes: 8-mer, flanks averaged, mean of 2 arrays, mostly near background
Target sequence (chain): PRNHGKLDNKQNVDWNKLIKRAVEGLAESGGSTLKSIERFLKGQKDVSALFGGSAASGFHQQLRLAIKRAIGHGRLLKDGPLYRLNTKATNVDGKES
Oligonucleotide	E-score
ATAGGCAT	-0.118
CTTTGAAA	0.1
GGATGGAA	0.0858
AGCATGCC	0.0101
GATCGTGA	-0.213
GCAAACGC	0.139
AGTGCTGA	-0.129
ACGACGAG	-0.194
CGGCAAGC	0.113
CGAATACC	-0.0852
GTTGCTAA	0.128

Single results of other studies
Substance	target	assay	system	setting	scale	measurement	value
PhoQ, residues 284 288 289 292 302 303 SVTLVV	PhoP, residues 12 14 15 18 19 NQFFI (Escherichia coli, UniProt P23836)	Sort-seq, refers to: YFP reporter	E. coli	PhoQ-PhoP variant library, added: 10 µM Mg2+	baseline: high Mg2+ state, higher = stronger signaling	fold induction	17.7

For quick reference, copied from above (study 3):
Oligonucleotide	E-score
ATAGGCAT	-0.118
GGATGGAA	0.0858
